Results collected from several papers.
Each numbered part is a random draw from the data of one study; scales do not carry over between parts.

Block 1
Target: Histone acetyltransferase KAT6A, winged helix 2, GST fusion (KAT6A, Homo sapiens, UniProt Q92794, residues 85-181)
Method: protein binding microarray
Molecule type: double-stranded DNA, one strand shown
Medium: in vitro
Tested at: not given
Setting: 8-mer, flanks averaged, mean of 2 arrays, mostly near background
Reference: not given
Reading: higher = stronger binding
Measurement: E-score
Target sequence (chain): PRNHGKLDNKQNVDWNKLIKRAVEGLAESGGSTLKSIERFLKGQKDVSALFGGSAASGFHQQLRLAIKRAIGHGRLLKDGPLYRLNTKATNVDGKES
Strand = AGTACTCA; result = -0.0768
Strand = ACTTGGCA; result = -0.08
Strand = AGATCGCA; result = 0.0598
Strand = CCGCGACA; result = 0.0688

Block 2
Target: Sal-like protein 4, full length isoform B (SALL4, Homo sapiens, UniProt Q9UJQ4-2, residues 1-616)
Method: universal PBM
Molecule type: double-stranded DNA, one strand shown
Medium: in vitro
Tested at: not given
Setting: 8-mer, flanks averaged, mean of replicates
Reading: higher = stronger binding
Measurement: E-score
Residues (chain): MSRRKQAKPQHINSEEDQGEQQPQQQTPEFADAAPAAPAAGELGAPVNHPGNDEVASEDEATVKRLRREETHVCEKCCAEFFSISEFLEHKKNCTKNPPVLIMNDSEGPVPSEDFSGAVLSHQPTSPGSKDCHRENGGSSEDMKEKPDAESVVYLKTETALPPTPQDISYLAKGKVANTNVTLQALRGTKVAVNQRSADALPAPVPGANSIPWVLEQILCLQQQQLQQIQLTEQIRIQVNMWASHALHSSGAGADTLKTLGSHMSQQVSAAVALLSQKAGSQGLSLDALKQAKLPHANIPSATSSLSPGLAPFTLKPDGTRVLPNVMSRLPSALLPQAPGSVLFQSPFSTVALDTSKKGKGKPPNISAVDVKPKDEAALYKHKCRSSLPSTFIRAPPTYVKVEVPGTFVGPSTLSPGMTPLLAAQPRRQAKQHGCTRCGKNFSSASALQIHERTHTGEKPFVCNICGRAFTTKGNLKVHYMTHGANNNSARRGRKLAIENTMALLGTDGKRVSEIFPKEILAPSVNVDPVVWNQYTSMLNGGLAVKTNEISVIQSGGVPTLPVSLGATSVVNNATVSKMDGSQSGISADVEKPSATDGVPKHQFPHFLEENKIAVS
Strand = AAAACCGA; result = -0.00746
Strand = CTGGGGTA; result = -0.206
Strand = CACCCGCA; result = -0.165
Strand = GCAGCCCA; result = -0.209

Block 3
Target: Interferon regulatory factor 3, full length, phosphomimetic (IRF3, Homo sapiens, UniProt Q14653, residues 1-427, S386D/S396D/S398D/S402D/T404D/S405D)
Method: protein-binding microarray
Molecule type: double-stranded DNA, one strand shown
Medium: in vitro
Tested at: 2540 nM top
Setting: 60-bp whole probe
Together with: salmon DNA 0.4 mg/ml
Reference: random background probes
Reading: higher = stronger binding
Measurement: fitted relative affinity
Residues (chain): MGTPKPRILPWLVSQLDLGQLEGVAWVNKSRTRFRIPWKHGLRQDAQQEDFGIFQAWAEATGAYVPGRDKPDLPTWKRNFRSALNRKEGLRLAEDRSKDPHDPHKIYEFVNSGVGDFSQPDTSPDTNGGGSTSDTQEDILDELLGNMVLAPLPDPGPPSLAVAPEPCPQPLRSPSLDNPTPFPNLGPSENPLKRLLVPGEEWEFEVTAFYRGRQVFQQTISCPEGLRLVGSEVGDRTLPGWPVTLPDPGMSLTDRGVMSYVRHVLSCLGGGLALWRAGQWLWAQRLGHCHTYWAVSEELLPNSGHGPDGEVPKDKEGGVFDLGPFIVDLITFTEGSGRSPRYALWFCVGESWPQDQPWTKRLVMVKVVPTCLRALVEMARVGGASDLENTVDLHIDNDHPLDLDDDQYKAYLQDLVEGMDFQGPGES
Strand = GCCTAGCACGACGCACTGAGTATCGAGACGTGCTAGGTCTTGATTCGCTTGACGCTGCTG; result = -0.0292 z-score
Strand = GCCTAGCACGACGGTTTCGGTTCCGGGAAGTGCTAGGTCTTGATTCGCTTGACGCTGCTG; result = 10.5 z-score
Strand = GCCTAGCACGACGGATTGGGGTTTCGGGACGTGCTAGTCTTGATTCGCTTGACGCTGCTG; result = 0.96 z-score

Other studies, line by line
Molecule = PhoQ, residues 284 288 289 292 302 303 TNASYF; target = PhoP, residues 12 14 15 18 19 GQAIL (Escherichia coli, UniProt P23836); assay = Sort-seq, measured: YFP reporter; test system = E. coli; conditions = PhoQ-PhoP variant library, together with: 10 µM Mg2+; how to read = reference: high Mg2+ state, higher = stronger signaling; measurement = fold induction; result = 11.1

Some of these lines once more (block 2):
Strand = AAAACCGA; result = -0.00746
Strand = CTGGGGTA; result = -0.206
